Measured values gathered from unrelated publications.
Protocols differ between the studies behind these lines. “And” joins repeats or separate records; there may be more than shown. ± marks the error that the study gave.
TDP1: Tyrosyl-DNA phosphodiesterase 1 (TDP1, Homo sapiens, UniProt Q9NUW8)
CASP6: Caspase-6 (CASP6, Homo sapiens, UniProt P55212)
Uncharacterized protein: Uncharacterized protein (Trypanosoma brucei brucei, UniProt Q386Q8)
TARDBP aggregated: TAR DNA-binding protein 43, aggregated (TARDBP, Homo sapiens, UniProt Q13148)
CHRM3: Muscarinic acetylcholine receptor M3 (CHRM3, Homo sapiens, UniProt P20309)
Gria1: Glutamate receptor 1 (Gria1, Rattus norvegicus, UniProt P19490)
PLIN3: Perilipin-3 (PLIN3, Homo sapiens, UniProt O60664)
T1: dsDNA, duplex; chain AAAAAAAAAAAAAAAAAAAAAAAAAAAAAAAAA; chain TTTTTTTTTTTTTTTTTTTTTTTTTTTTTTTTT

O=C(O)c1ccc(Nc2c(-c3ccc(CON=Cc4ccc(COc5c(F)c(F)cc(F)c5F)o4)cc3)nc3cc(-c4ccccc4)ccn23)cc1 (mixture of isomers)
inhibition (TDP1; enzyme activity, inhibitor; 100 µM, unpurified compound): 36.9%

CCCc1n(Cc2ccc(Br)cc2)c2c([n+]1Cc1ccc(Br)cc1)CCCC2
binding (T1, dsDNA, duplex; competition with EtBr, competitor, EtBr displacement fluorescence; Na+ 50 mM, added: EtBr): binds

C[C@@H](Nc1nc(N[C@H](C)C(F)(F)F)nc(-c2cccc(Cl)n2)n1)C(F)(F)F
maximum inhibition (IDH1 (Homo sapiens, UniProt O75874, R132L); 1 h preincubation): 80 ± 1%

O=C(O)c1ccc(Nc2c(-c3ccccc3)nc3ccc(CON=Cc4ccc(OCc5ccc6nsnc6c5)cc4)cn23)cc1
inhibition (TDP1; enzyme activity, inhibitor; 100 µM, unpurified compound): 98.2%

CCCC[C@H](NC(C)=O)C(=O)N[C@@H](CCCC(=O)O)C(=O)N1CCC[C@H]1C(=O)N[C@@H](CC(=O)O)C(=O)COC(=O)c1c(C)cccc1C
kinact/KI (CASP6; enzyme activity, inhibitor): 5700 M⁻¹ s⁻¹

Clc1ccccc1C1=Nn2c(nnc2C2CCCCC2)SC1
Hill slope (Uncharacterized protein; inhibitor, coupled colorimetric; Trypanosoma brucei): 0.94

CCCCCCCCCCCCC/C=C/C=O
isoTOP-ABPP competition ratio (Disks large-associated protein 5 (DLGAP5, Homo sapiens, UniProt Q15398); competitive isoTOP-ABPP, item: DLG7 cysteine peptide; Ramos soluble proteome; 100 µM, added: iodoacetamide probe; reference: DMSO over compound-treated, higher = stronger cysteine blockade): 0.9

CC(C)[C@@H]1NC(=O)[C@H](Cc2ccccc2)NC(=O)CSC[C@@H](C(N)=O)NC(=O)[C@H](CCC(=O)O)NC(=O)[C@H](CO)NC(=O)[C@H](Cc2c[nH]c3cccc(Cl)c23)NC(=O)[C@H](C2CCCCC2)NC(=O)[C@H](C(C)C)NC(=O)[C@H](Cc2ccc(O)cc2)NC(=O)[C@H](CC(=O)O)NC(=O)[C@H](Cc2c[nH]c3ccccc23)NC(=O)[C@H](Cc2ccc(N)nc2)NC(=O)[C@H](Cc2c[nH]c3ccc(Cl)cc23)NC(=O)[C@H](CCC(=O)O)NC1=O
remaining activity (IL1R1 (Homo sapiens, UniProt P14778); IL-8 release, antagonist; A-431; 4 µM, 18 h, added: IL-1β 5 ng/mL; reference: untreated): 97.9%

O=C(O)c1ccc(Nc2c(-c3ccccc3)nc3ccc(CON=Cc4ccc(N5CCC(CO)CC5)cc4)cn23)cc1
inhibition (TDP1; enzyme activity, inhibitor; 100 µM, unpurified compound): 10.1%

CC(/C=C/C(=O)NO)=C\[C@@H](C)C(=O)c1ccc(N(C)C)cc1
binding stoichiometry (HDAC8 (Homo sapiens, UniProt Q9BY41); ITC; Tris-HCl buffer; concentration not given, 293 K): 0.9

CCOc1ccc(-c2nnc3n2N=C(c2cc(OC)ccc2OC)CS3)cc1
Hill slope (Uncharacterized protein; inhibitor, coupled colorimetric; Trypanosoma brucei): 0.64

COc1cc(Nc2nccc(-c3cnn4nc(OC)ccc34)n2)cc(C(F)(F)F)c1
remaining binding (Tyrosine-protein kinase ABL1, phosphorylated (ABL1, Homo sapiens, UniProt P00519, E255K); binding; 1 µM): 88%

O=C1c2sc(-c3ccc(N4CCC(CO)CC4)nc3F)nc2CCN1c1cccnc1
specific binding (TARDBP aggregated; radioligand binding; human, FTLD-TDP type C sarkosyl-insoluble extract; 9.68 nM): 0.083 nM and 0.102 nM and 0.164 nM

O=C(O)c1ccc(Nc2c(-c3ccccc3)nc3ccc(CON=Cc4ccc(I)c(O)c4)cn23)cc1
inhibition (TDP1; enzyme activity, inhibitor; 100 µM, unpurified compound): 87.6%

CCCCCCOc1ccc(C(=O)OCCN2CC=CCC2)cc1
Emax (CHRM3; membranes; 1 µM, 15 h, added: carbachol; reference: control): 1.5 ± 0.1 fold

CC(=O)N[C@@H](Cc1ccccc1)C(=O)N[C@@H](CC(=O)O)C(=O)N[C@@H](CCC(=O)O)C(=O)N1CCC[C@H]1C(=O)N[C@@H](CC(=O)O)C(=O)COC(=O)c1c(C)cccc1C
kinact/KI (CASP6; enzyme activity, inhibitor): 86600 M⁻¹ s⁻¹

O=C(O)c1ccc(Nc2c(-c3ccccc3)nc3ccc(CON=Cc4c(N5CCCC5)nc5ccccn45)cn23)cc1
inhibition (TDP1; enzyme activity, inhibitor; 100 µM, unpurified compound): -2.8%

O=C1c2sc(-c3ccc(N4CCC(F)C4)nc3F)nc2CCN1c1cccnc1 (stereo not shown)
specific binding (TARDBP aggregated; autoradiography; human, sections, FTLD-TDP, type B; 10 nM; higher = more binding): 1.69 a.u. and 2.99 a.u. and 2.17 a.u. and 1.59 a.u. and 3.07 a.u.

Cc1cc(C)cc(COc2cc3c(cc2OCc2cc(C)cc(C)c2)C2CC(O)(Cc4cn(CCOCCOCCNC(=O)CCCCC5SCC6NC(=O)NC65)nn4)CC(C)N2CC3)c1 (stereo not shown)
SILAC ratio (Membrane-associated progesterone receptor component 2 (Homo sapiens, UniProt O15173); biotinylated probe pull-down, item: PGRMC2; 10 µM probe; reference: heavy over light): 1.75

O=C(O)Cc1cc2c(cc1C(=O)c1cccc(Cl)c1)OCO2
deactivation time constant (Gria1; glutamate-evoked current, whole-cell patch clamp; HEK-293T; concentration not given, weighted tau, 1 ms pulse, added: glutamate): 9.1 ± 0.4 ms

CC(=O)N1[C@H](C(=O)N[C@H](C(=O)N[C@@H](Cc2c[nH]cn2)C(=O)N[C@@H](CC(=O)O)C(=O)COC(=O)c2c(C)cccc2C)C(C)(C)C)C[C@@H]2CCCC[C@@H]21
kinact/KI (CASP6; enzyme activity, inhibitor): 900 M⁻¹ s⁻¹

Cc1cccc2c1N(C(=O)n1ccnn1)CC2
relative affinity (KAI2 (Arabidopsis thaliana, UniProt Q9SZU7, F194A); ITC; F194A mutant; reference: wild type): 6.27%

CCCCCC=CC=C1C(=O)C=CC1CC=CCCCC(=O)O (stereo not shown)
isoTOP-ABPP competition ratio (PLIN3; competitive isoTOP-ABPP; proteome, soluble, MDA-MB-231; 100 µM, 60 min, added: iodoacetamide probe; reference: DMSO over compound-treated, higher = stronger cysteine blockade): 4.9

Cc1ccc(S(=O)(=O)N2CC(NC(=O)Cc3ccccc3)C2=O)cc1 (stereo not shown)
IC50 (glpG (Escherichia coli, UniProt P09391); enzyme activity, inhibitor, gel-based chimeric protein substrate): inactive

O=C(O)c1ccc(Nc2c(-c3ccccc3)nc3ccc(CON=Cc4c(O)c(C(=O)O)cc5ccccc45)cn23)cc1 (mixture of isomers)
inhibition (TDP1; enzyme activity, inhibitor; 100 µM, unpurified compound): 50.5%

NC1=NCCc2ccccc21
ΔTm (Nicotinamide N-methyltransferase, SAM-bound (NNMT, Homo sapiens, UniProt P40261); differential scanning fluorimetry; 1 mM, added: 100 µM SAM): 1.4 °C

NCC(=O)O
particle diameter (Lysozyme C (LYZ, Gallus gallus, UniProt P00698); sedimentation equilibrium AUC): 5.1 nm

CC(C)Oc1cc(Cl)ccc1CNc1cc(-c2ccccc2)nc2ncnn12
cAMP luminescence (GPR3 (Homo sapiens, UniProt P46089); cAMP reporter; human cells; 10 pM; higher is more cAMP): 23800 a.u. and 30600 a.u. and 15800 a.u. and 44500 a.u. and 42500 a.u. and 46300 a.u. and 31500 a.u. and 44800 a.u.

COC(=O)Cc1cc2c(cc1C(=O)c1cccc(Br)c1)OCO2
current amplitude (Gria1; glutamate-evoked current, whole-cell patch clamp; HEK-293T; concentration not given, pH 7.4, holding potential -60 mV, added: 10 mM glutamate): 405 ± 33 pA

CCCCCC(O)/C=C/C=O (stereo not shown)
isoTOP-ABPP competition ratio (PLIN3; competitive isoTOP-ABPP, item: M6PRBP1 cysteine peptide; Ramos soluble proteome; 100 µM, added: iodoacetamide probe; reference: DMSO over compound-treated, higher = stronger cysteine blockade): 5.2

CN(Cc1cc(C2CC2)on1)C(=O)c1cccc(-c2ccc3c(c2)CCO3)c1
reaction rate (ACS1 (Saccharomyces cerevisiae, UniProt Q01574); enzyme activity, inhibitor, coupled pyrophosphate; 125 µM; higher is more activity): 0.0196 a.u.

Fc1cccc(Nc2nc(NC3CCCCC3)c3ccccc3n2)c1
bias factor (ADRB2 (Homo sapiens, UniProt P07550); β-arrestin2 recruitment, PathHunter and GloSensor; reference: GloSensor IC50 over PathHunter IC50): > 100 fold

CC(=O)N[C@@H](CC(C)C)C(=O)N[C@@H](CCC(=O)O)C(=O)N[C@H](C(=O)N[C@@H](CC(=O)O)C(=O)COC(=O)c1c(C)cccc1C)C(C)C
kinact/KI (CASP6; enzyme activity, inhibitor): 652000 M⁻¹ s⁻¹

O=C(O)c1ccc(Nc2c(-c3ccc(CON=Cc4csc(-c5cccc(Cl)c5)n4)cc3)nc3cc(-c4ccccc4)ccn23)cc1
inhibition (TDP1; enzyme activity, inhibitor; 100 µM, unpurified compound): 42.8%

C#CCOC(=O)[C@]1(C)C=C(C(=O)OC(C)(C)C)C(=O)CC1
normalized kinase activity (MAPK8 (Homo sapiens, UniProt P45983); enzyme activity, D-SENSOR; 1.646 µM, mean of replicates): 1.05

C=CC(=O)N1CCCC(n2c(=O)c3ncccc3n(Cc3ccc(Oc4ccccc4)cc3)c2=O)C1 (stereo not shown)
melting temperature (Crk-like protein (Homo sapiens, UniProt P46109); thermal proteome profiling; replicate 2): 56.4 °C

Cc1cnc2nc1Nc1cccc(c1)COC/C=C/COCc1cc(ccc1OCCN1CCOCC1)N2
remaining binding (ABL1 (Homo sapiens, UniProt P00519, M351T); binding; 0.1 µM): 59%

CC(C)NCCCn1c(Sc2cc3c(cc2I)OCO3)nc2c(N)ncnc21
ΔG (HSP90AA1/HSP90B1 (Homo sapiens, UniProt P07900+P41148, E62I/S52A/Y61L); ITC): -10.32 ± 0.07 kcal/mol

CCN(CC)C(CO)c1cccc2c(C)c(C)oc12 (stereo not shown)
fold change (LPAR1 (Homo sapiens, UniProt Q92633); G-protein dissociation, agonist, NanoBiT; HEK-293T; 1 nM, wild-type receptor; reference: baseline luminescence): 0.891 and 0.777 and 0.804 and 0.915 and 0.946

CCCCOc1ccc(C(=O)OCC[N+]2(C)CC=CCC2)cc1 (stereo not shown)
basal binding (CHRM3; membranes; 100 µM, 15 h, no carbachol; reference: control): 1.04 ± 0.03 fold

O=C(O)Cc1cc2c(cc1C(=O)c1cccc(Br)c1)OCO2
current amplitude (Gria1; glutamate-evoked current, whole-cell patch clamp; HEK-293T; concentration not given): 182 ± 14 pA

COc1cc(Cl)cc(C=NOCc2ccc3nc(-c4ccccc4)c(Nc4ccc(C(=O)O)cc4)n3c2)c1O
inhibition (TDP1; enzyme activity, inhibitor; 100 µM, unpurified compound): 76.5%

CC[C@H](C)[C@@H]1NC(=O)[C@H](Cc2ccc(O)cc2)NC(=O)[C@H](Cc2ccccc2)NC(=O)[C@H](Cc2ccccc2)NC(=O)[C@H](Cc2ccccc2)NC(=O)CSC[C@@H](C(=O)N[C@@H](Cc2c[nH]cn2)C(N)=O)NC(=O)[C@H](CC(N)=O)NC(=O)[C@H](Cc2c[nH]c3ccccc23)NC1=O
ΔTm (Bromodomain-containing protein 4, BD1 (BRD4, Homo sapiens, UniProt O60885); thermal stability, DSF; 50 µM): -0.26 °C

Repeated from above:
CC(C)Oc1cc(Cl)ccc1CNc1cc(-c2ccccc2)nc2ncnn12
cAMP luminescence (GPR3 (Homo sapiens, UniProt P46089); cAMP reporter; human cells; 10 pM; higher is more cAMP): 23800 a.u. and 30600 a.u. and 15800 a.u. and 44500 a.u. and 42500 a.u. and 46300 a.u. and 31500 a.u. and 44800 a.u.

COC(=O)Cc1cc2c(cc1C(=O)c1cccc(Br)c1)OCO2
current amplitude (Gria1; glutamate-evoked current, whole-cell patch clamp; HEK-293T; concentration not given, pH 7.4, holding potential -60 mV, added: 10 mM glutamate): 405 ± 33 pA

CCCCCC(O)/C=C/C=O (stereo not shown)
isoTOP-ABPP competition ratio (PLIN3; competitive isoTOP-ABPP, item: M6PRBP1 cysteine peptide; Ramos soluble proteome; 100 µM, added: iodoacetamide probe; reference: DMSO over compound-treated, higher = stronger cysteine blockade): 5.2

CN(Cc1cc(C2CC2)on1)C(=O)c1cccc(-c2ccc3c(c2)CCO3)c1
reaction rate (ACS1 (Saccharomyces cerevisiae, UniProt Q01574); enzyme activity, inhibitor, coupled pyrophosphate; 125 µM; higher is more activity): 0.0196 a.u.

Fc1cccc(Nc2nc(NC3CCCCC3)c3ccccc3n2)c1
bias factor (ADRB2 (Homo sapiens, UniProt P07550); β-arrestin2 recruitment, PathHunter and GloSensor; reference: GloSensor IC50 over PathHunter IC50): > 100 fold

CC(=O)N[C@@H](CC(C)C)C(=O)N[C@@H](CCC(=O)O)C(=O)N[C@H](C(=O)N[C@@H](CC(=O)O)C(=O)COC(=O)c1c(C)cccc1C)C(C)C
kinact/KI (CASP6; enzyme activity, inhibitor): 652000 M⁻¹ s⁻¹
